Experimental data pooled from the literature.
Parts stem from different laboratories: compare values within a part only. Changes are numbered by the printed parent chain.
Sequence of UniProt Q99640 (whole entry, looked up): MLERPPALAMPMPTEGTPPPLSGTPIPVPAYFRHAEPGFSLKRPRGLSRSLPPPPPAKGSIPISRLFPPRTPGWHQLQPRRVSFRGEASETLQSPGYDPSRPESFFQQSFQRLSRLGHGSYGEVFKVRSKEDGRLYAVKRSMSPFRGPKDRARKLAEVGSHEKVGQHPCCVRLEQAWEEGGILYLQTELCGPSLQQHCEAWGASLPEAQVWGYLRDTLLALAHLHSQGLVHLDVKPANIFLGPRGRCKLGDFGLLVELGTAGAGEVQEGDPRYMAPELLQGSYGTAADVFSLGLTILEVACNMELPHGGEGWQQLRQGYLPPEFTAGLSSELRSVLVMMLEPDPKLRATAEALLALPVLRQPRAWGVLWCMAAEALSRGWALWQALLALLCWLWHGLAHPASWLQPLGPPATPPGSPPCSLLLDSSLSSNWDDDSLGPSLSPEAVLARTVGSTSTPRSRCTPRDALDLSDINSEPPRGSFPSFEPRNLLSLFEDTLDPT

Study 1
Target: Protein C-ets-1 (ETS1, Homo sapiens, UniProt P14921, residues 1-441, K379A, full length assumed)
Method: protein-binding microarray
Form: double-stranded DNA, one strand shown
Matrix: in vitro
Tested at: not given
Notes: k-mer, scored over probes, only values ≥0.25
Direction: higher = stronger binding
Residues (chain): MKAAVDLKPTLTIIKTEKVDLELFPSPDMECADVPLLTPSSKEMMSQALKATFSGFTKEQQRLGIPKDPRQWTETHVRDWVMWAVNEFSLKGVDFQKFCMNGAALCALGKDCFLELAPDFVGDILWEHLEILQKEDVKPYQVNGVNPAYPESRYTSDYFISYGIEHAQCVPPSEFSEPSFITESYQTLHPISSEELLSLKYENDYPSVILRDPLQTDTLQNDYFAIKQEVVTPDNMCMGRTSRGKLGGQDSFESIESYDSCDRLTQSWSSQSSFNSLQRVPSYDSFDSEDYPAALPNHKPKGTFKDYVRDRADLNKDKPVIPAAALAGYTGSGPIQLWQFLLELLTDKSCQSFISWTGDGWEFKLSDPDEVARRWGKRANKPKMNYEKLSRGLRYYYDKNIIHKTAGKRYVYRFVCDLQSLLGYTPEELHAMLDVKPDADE
Sequence	E-score
CCGTTGTC	0.254
GGTAACAC	0.27
CGGATACA	0.275
ACAACACC	0.281
ACTTACCG	0.31
CACCCGGA	0.263
GCCCCGGA	0.313
ATCCGGTG	0.418

Study 2
Target: CCNF, cyclin fold, Cln2 fusion (human)
Method: yeast growth competition, sequencing
Matrix: yeast
Notes: strong parent motif
Baseline: not given
Direction: higher = stronger binding
Starting sequence: viral docking peptide; KGVKRKLFAEDSS
Change	normalised enrichment score
F8N	0.481
V3L	5.58
E10M	7.54
K6H	3.57
K6E	6.9
K4I	8.21
D11L	7.98
V3Q	1.51
K6I	6.69
R5N	0.408
S12Y	7.73
L7K	0.817
V3S	3.03
K6N	6.3
F8G	0.62
A9N	7.08
D11V	8.09
G2N	8.08
G2D	7.82
E10A	7.77
S12R	8.03
G2C	8.26
K6Q	8.25
R5L	0.547
R5E	0.0815

Study 3
Target: Sal-like protein 4, full length isoform B (SALL4, Homo sapiens, UniProt Q9UJQ4-2, residues 1-616)
Method: universal PBM
Form: double-stranded DNA, one strand shown
Matrix: in vitro
Tested at: not given
Notes: 8-mer, flanks averaged, mean of replicates
Direction: higher = stronger binding
Sequence	E-score
AGACCTAA	-0.0741
GCGACAAA	0.00533
AACAATAG	0.201
AAGCGACG	-0.211
ACGAGTTG	-0.0634
TAACACGA	0.156
GCCAGACA	-0.0698
CACCGGGC	-0.367

Study 4
Target: CRIPT, C-terminal peptide
Method: DHFR complementation, deep sequencing
Matrix: yeast
Notes: single substitutions, model-inferred values
Baseline: wild type
Direction: higher = weaker binding
Starting sequence: ERBIN, PDZ domain 1 (human); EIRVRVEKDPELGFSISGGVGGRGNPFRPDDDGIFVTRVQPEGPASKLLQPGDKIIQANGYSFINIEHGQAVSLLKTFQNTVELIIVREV; partner TKNYKQTSV
Change	binding free energy change
A58I	1.54 kcal/mol
E7D	-0.0659 kcal/mol
V39Y	0.756 kcal/mol
E42C	0.113 kcal/mol
E83K	0.269 kcal/mol
I64F	-0.117 kcal/mol
E67Q	0.141 kcal/mol
P26Y	0.668 kcal/mol

Further values, each from its own experiment
SMILES	target	method	cells	tested at	time	quantity	result
C[C@@H]1C[C@@H]([C@H](O)CC2CC(=O)NC(=O)C2)C(=O)[C@@H](C)C1	Membrane-associated tyrosine- and threonine-specific cdc2-inhibitory kinase (PKMYT1, Homo sapiens, UniProt Q99640)	immunoblotting	HCC1569	50 µg/mL	4 h	remaining protein level	63.9%

Some of these lines once more (study 1):
Sequence	E-score
CGGATACA	0.275
ACAACACC	0.281
ACTTACCG	0.31
CACCCGGA	0.263
